Earlier results as cited in several papers.
Lines come from different studies, so protocols differ. Numbers after ± are the reported error. ≈ marks a conversion by molar mass, not a printed value.
UniProt Q9BZL6, sequence (whole entry, looked up): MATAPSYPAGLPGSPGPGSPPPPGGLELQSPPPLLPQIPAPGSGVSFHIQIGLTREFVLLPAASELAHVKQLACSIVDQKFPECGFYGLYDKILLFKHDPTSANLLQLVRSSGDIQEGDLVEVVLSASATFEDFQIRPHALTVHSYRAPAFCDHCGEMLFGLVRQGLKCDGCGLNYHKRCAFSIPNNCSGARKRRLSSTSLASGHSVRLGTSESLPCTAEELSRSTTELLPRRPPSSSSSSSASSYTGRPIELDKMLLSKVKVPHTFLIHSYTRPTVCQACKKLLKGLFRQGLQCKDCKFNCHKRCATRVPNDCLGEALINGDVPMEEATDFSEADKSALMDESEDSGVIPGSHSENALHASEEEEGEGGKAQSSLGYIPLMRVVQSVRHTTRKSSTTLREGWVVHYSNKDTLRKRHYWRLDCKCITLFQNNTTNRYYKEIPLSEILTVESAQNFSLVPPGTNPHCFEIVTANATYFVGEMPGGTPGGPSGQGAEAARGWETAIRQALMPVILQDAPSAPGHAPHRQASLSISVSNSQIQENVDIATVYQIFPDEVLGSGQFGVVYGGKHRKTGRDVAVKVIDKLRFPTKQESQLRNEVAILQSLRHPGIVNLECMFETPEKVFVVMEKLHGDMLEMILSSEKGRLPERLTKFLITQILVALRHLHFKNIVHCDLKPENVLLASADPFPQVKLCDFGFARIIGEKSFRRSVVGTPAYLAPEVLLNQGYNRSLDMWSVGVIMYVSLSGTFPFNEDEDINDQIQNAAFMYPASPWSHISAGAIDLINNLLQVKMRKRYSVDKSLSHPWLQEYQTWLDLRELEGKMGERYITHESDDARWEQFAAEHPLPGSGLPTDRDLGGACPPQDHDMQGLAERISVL

SMILES | target or system | test | test system | conditions | scale | endpoint | value
C[C@H](Cn1cnc2c(N)ncnc21)OCP(=O)(O)O |  |  | human |  |  | renal clearance | 2.7 mL/min/kg
Nc1nc(=O)n([C@@H]2CS[C@H](CO)O2)cc1F |  |  | mouse | 10 mg/kg |  | bioavailability | 96%
O=C(c1cccnc1-c1ccncc1)N1CCC(O)(Cc2ccccc2)CC1 |  |  | human | dose not given |  | participants with treatment-emergent adverse events | 80.3%
C[Si]1(C)O[Si](C)(C)O[Si](C)(C)O[Si](C)(C)O[Si](C)(C)O[Si](C)(C)O1 |  |  | octanol/air |  |  | intercept A of log KOA vs 1/T | -4.39
Cc1cc(C)c(CNC(=O)c2cc(Cl)c3c(c2C)O[C@@](C)([C@H]2CC[C@H](N(C)C)CC2)O3)c(=O)[nH]1 |  |  | relapsed/refractory ATLL patients | 200 mg/day, added: fluconazole |  | serious TEAE incidence | 45.5%
CC(C)(O/N=C(\C(=O)N[C@@H]1C(=O)N2C(C(=O)[O-])=C(C[n+]3ccccc3)CS[C@H]12)c1csc(N)n1)C(=O)O | Escherichia coli |  | clinical isolate RKI-No_593/16 |  |  | MIC | 4 µg/mL (≈ 7.32 µM)
Nc1ccn([C@@H]2O[C@H](CO)[C@@H](O)C2(F)F)c(=O)n1 |  |  | pancreatic cancer patients | dose not given |  | dose reductions due to Neutropenia | 16%
O=C1Nc2c(C(F)(F)F)cccc2[C@@]1(c1ccc(O)cc1)c1ccc(OC(F)(F)F)cc1 |  |  | dog | oral |  | tolerated dose | > 150 mg/kg
COc1cc2c(Oc3ccc4[nH]c(C)cc4c3F)ccnc2cc1OCC1(N)CC1 |  |  | Beagle dog | oral, 0.40 mg/kg, 8 h, 13 weeks dosing |  | AUC(0-t) | 195 ng·h/mL
CO[C@]1(C(=O)N[C@@H](C)c2ccc(-n3cc(F)cn3)nc2)CC[C@H](c2nc(C)cc(Nc3cc(C)[nH]n3)n2)CC1 |  |  | healthy human | 200 mg single, added: itraconazole |  | tolerability | not toxic
CN1CCC(COc2cnc(-c3cccc(Cn4nc(-c5cccc(C#N)c5)ccc4=O)c3)nc2)CC1 |  | exposure-response analysis | human patients | dose not given |  | median exposure | 25.3 µg/mL
CNC(=O)c1c(C)oc2cc(Oc3ncnc4cc(OC)c(OC)cc34)ccc12 |  |  | feces | 5 mg radiolabelled, time not given |  | dose recovered unchanged | 5.34%
CC(F)(F)c1cc(F)ccc1-c1sc2cc(O)ccc2c1Oc1ccc(/C=C/C(=O)O)cc1 |  |  | mouse | 20 mg/kg once daily |  | efficacious AUC | 3510 ng·h/mL
O=C(Nc1ccccc1)c1cc([N+](=O)[O-])ccc1[76Br] |  |  | nude mice, MDA-MB-435 xenograft, tumour | 2 h |  | tumour uptake | 4 to 5 %ID/g
C[C@H](O)C(=O)C1=Nc2c(nc(N)[nH]c2=O)NC1 |  |  | healthy human volunteers, plasma | oral, dose not given, LLOQ 0.5 ng/mL |  | time to below LLOQ | ≤ 8 h
CCCCNC(=O)NS(=O)(=O)c1ccc(C)cc1 |  |  | rat |  |  | plasma clearance | 0.454 mL/min/kg
CCCCCCCOC(=O)c1ccc(O)cc1 |  |  |  | pH 7.4 |  | logD | 4.66
CCC(CC)C(=O)O |  | scoliosis or lordosis | zebrafish embryo | nominal concentration |  | EC10 | 892 µM
Nc1cc(C(F)(F)F)c(-c2nc(N3CCOCC3)nc(N3CCOCC3)n2)cn1 | Serine/threonine-protein kinase D2 (PRKD2, Homo sapiens, UniProt Q9BZL6) | enzyme activity |  | 10 µM | relative to: untreated | remaining activity | 90%
CN(C)C(=O)c1cc2cnc(Nc3ccc(N4CCNCC4)cn3)nc2n1C1CCCC1 |  | item: anemia | advanced solid tumour or lymphoma patients | dose not given, 3 weeks on 1 week off, any grade | relative to: patients | adverse event incidence | 33.6%
CN(C)C(=N)N=C(N)N |  |  | patients with liver failure |  |  | rate constant k21 | 0.0104 min⁻¹
CO[C@@H](C)Cn1c(=O)n(C)c2cnc3ccc(-c4cncc(C(C)(C)O)c4)cc3c21 |  | item: grade ≥3 rash | cancer patients | dose not given, monotherapy |  | patients with related adverse event | 3.1%
Nc1nc(O)c2ncn(COC(CO)CO)c2n1 |  |  | dog |  |  | oral bioavailability | 100%

SMILES | target or system | test | test system | conditions | scale | endpoint | value
CCN1CCN(Cc2ccc(Nc3ncc(F)c(-c4cc(F)c5nc(C)n(C(C)C)c5c4)n3)nc2)CC1 |  |  | dog, plasma | dose not given |  | parent share of plasma radioactivity | ~41%
CN[C@@H](C)C(=O)N[C@H]1CN(S(=O)(=O)c2cccc(S(=O)(=O)N3CC[C@H]4CC[C@@H](C(=O)NC(c5ccccc5)c5ccccc5)N4C(=O)[C@@H](NC(=O)[C@H](C)NC)C3)c2)CC[C@H]2CC[C@@H](C(=O)NC(c3ccccc3)c3ccccc3)N2C1=O |  |  | advanced solid tumour patients | dose not given, monotherapy |  | TEAE fatigue incidence | 17.4%
CC(C)(C(=O)O)c1ccc(C(O)CCCN2CCC(C(O)(c3ccccc3)c3ccccc3)CC2)cc1 (stereo not shown) |  |  | healthy volunteers | dose not given, intermediate P-gp activity category |  | AUC(0-6 h) | 148 to 218 ng·h/mL
CC1(C)CCC(CN2CCN(c3ccc(C(=O)NS(=O)(=O)c4ccc(NCC5CCOCC5)c([N+](=O)[O-])c4)c(Oc4cnc5[nH]ccc5c4)c3)CC2)=C(c2ccc(Cl)cc2)C1 |  | legacy population PK model | human |  |  | apparent intercompartmental clearance (Q/F) | 97.2 L/day
N#C[C@@]1(c2ccc3c(N)ncnn23)O[C@H](CO)[C@@H](O)[C@H]1O |  |  | dog |  |  | oral bioavailability | 85%
CC1(C)S[C@@H]2[C@H](NC(=O)[C@H](N)c3ccccc3)C(=O)N2[C@H]1C(=O)O | Escherichia coli |  | clinical isolate RKI-No_317/16 |  |  | MIC | > 16 µg/mL
O=C(O)CN(CCN(CC(=O)O)CC(=O)O)CCN(CC(=O)O)CC(=O)O |  | pH-potentiometry, item: logK5H | 0.1 M NaClO4 | 25 °C |  | protonation constant (log) | 2.46
Cc1ccc(NC(=O)c2ccc(CN3CCN(C)CC3)cc2)cc1Nc1nccc(-c2cncc(-c3oncc3C)c2)n1 |  |  | mouse | 50 mg/kg/day, steady state |  | Cmax | 2560 ng/mL
Cc1cc(Nc2ccc(S(F)(F)(F)(F)F)cc2)n2ncnc2n1 |  |  | PBS | pH 6.5 |  | kinetic solubility | 71 µM (≈ 24.9 µg/mL)
Cc1ccsc1C(=CCCN1CCC[C@@H](C(=O)O)C1)c1sccc1C |  |  | mouse | i.p., corneal kindling model |  | protective index | 20
NC12CNCCNCC(N)(CNCCNC1)CNCCNC2 |  |  |  | ammonium group deprotonation |  | pKa2 | ~5.3
c1ccc2c(c1)-c1cccc3c1c-2cc1ccccc13 |  | slow stirring |  |  |  | logKow | 6.5
CCOc1cc2ncc(C#N)c(Nc3ccc(OCc4ccccn4)c(Cl)c3)c2cc1NC(=O)/C=C/CN(C)C |  |  | human | 240 mg, single dose |  | AUC(0-24) | 939 ng·h/mL
O=C1Nc2ccc(Cl)cc2[C@@](C#CC2CC2)(C(F)(F)F)O1 |  |  | HIV-infected patients | 600 mg once daily, multiple doses |  | steady-state concentration | 1640 ± 930 ng/mL
Cc1cc(-c2nccc3c2ccn3CC(=O)Nc2ccc(-c3cnccn3)cn2)ccn1 |  | item: total drug | dog | 50 mg/kg/day, 14-day dose-range finding |  | Cmax | 1700 nM
OC[C@H]1O[C@@H](Oc2cc3c(O)cc(O)cc3[o+]c2-c2ccc(O)c(O)c2)[C@H](O)[C@@H](O)[C@@H]1O |  |  | solution | added: Fe3+ |  | absorption maximum | 650 nm
Cc1cn([C@@H]2C[C@@H](O)[C@H](CO)O2)c(=O)[nH]c1=O |  |  | woodchuck | dose not given |  | oral bioavailability | 39%
C[S+]([O-])CCCCN=C=S (stereo not shown) |  |  | rat |  |  | half-life | 4 h
OCc1cc(C(O)CNCCCCCCOCCCCc2ccccc2)ccc1O (stereo not shown) |  |  | human, plasma | inhaled |  | Tlast | 16 h
CCCCC(C)C(=O)O (stereo not shown) |  | pericardial and yolk oedema | zebrafish embryo | nominal concentration |  | EC10 | 385 µM
C[C@@H](O)[C@H]1C(=O)N2C(C(=O)O)=C(S[C@@H]3CN[C@H](C(=O)N(C)C)C3)[C@H](C)[C@H]12 |  |  | healthy Chinese subjects |  |  | t_half | 1.1 h
CNC(=O)c1ccc(Nc2ncc(C(F)(F)F)c(NCc3nccnc3N(C)S(C)(=O)=O)n2)cc1 |  |  | patients with KRAS mutant NSCLC | dose not given, treatment-emergent, any grade | relative to: patients | patients with fatigue | 24%
COc1cc(N2CCC(N3CCN(C)CC3)CC2)ccc1Nc1ncc(Cl)c(Nc2ccccc2P(C)(C)=O)n1 |  |  | patients with cancer, plasma | median |  | Tmax at steady state | 2.1 h

Some of these lines once more:
SMILES | target or system | test | test system | conditions | scale | endpoint | value
CCN1CCN(Cc2ccc(Nc3ncc(F)c(-c4cc(F)c5nc(C)n(C(C)C)c5c4)n3)nc2)CC1 |  |  | dog, plasma | dose not given |  | parent share of plasma radioactivity | ~41%
Cc1ccsc1C(=CCCN1CCC[C@@H](C(=O)O)C1)c1sccc1C |  |  | mouse | i.p., corneal kindling model |  | protective index | 20
O=C(c1cccnc1-c1ccncc1)N1CCC(O)(Cc2ccccc2)CC1 |  |  | human | dose not given |  | participants with treatment-emergent adverse events | 80.3%
CO[C@]1(C(=O)N[C@@H](C)c2ccc(-n3cc(F)cn3)nc2)CC[C@H](c2nc(C)cc(Nc3cc(C)[nH]n3)n2)CC1 |  |  | healthy human | 200 mg single, added: itraconazole |  | tolerability | not toxic
